Results of several laboratories.
Numbered parts are unrelated; each lists some results of a single study.

Study 1 — technique: competition protein-binding microarray; form: double-stranded DNA, one strand shown; sample: in vitro; concentration: 2 µM; with: Pho4 competitor, 0.05 µM; reading: higher = stronger binding; all sequences stand within: … GTCTTGATTCGCTTGACGCTGCTG
Target: Centromere-binding protein 1, full length, His-tagged (CBF1, Saccharomyces cerevisiae, UniProt P17106, residues 1-351)
UniProt P17106, sequence (whole entry, looked up): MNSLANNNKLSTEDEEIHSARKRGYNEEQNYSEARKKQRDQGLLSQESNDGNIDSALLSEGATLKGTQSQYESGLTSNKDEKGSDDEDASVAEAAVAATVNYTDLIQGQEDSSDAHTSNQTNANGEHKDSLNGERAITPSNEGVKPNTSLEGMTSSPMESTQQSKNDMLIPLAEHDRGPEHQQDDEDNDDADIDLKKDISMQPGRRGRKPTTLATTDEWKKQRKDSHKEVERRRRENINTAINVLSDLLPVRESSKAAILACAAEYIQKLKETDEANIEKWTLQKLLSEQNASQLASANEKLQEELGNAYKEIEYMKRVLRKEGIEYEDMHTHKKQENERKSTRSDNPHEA
Setting: whole 60-bp probe, lowest competitor level
Oligonucleotide	fluorescence intensity [a.u.]
CATACCCAACCTTTTCACGTGCATTAAGATATTTGT	1450
AAATTACTAAGTTTTCACGTGGCGTACCCCGTATGA	682
AAGTTCGCCAAGTTACACATGGGTACTGATGATGTC	95.1
TTAAGTCTATACCTTCACGTGACTCGCTAGTACCCG	6680
GTTCTTGCGATGAGCTGCCCTTGCAAATTTTTCACC	89.2
TCCGAAATGCGATAAGTCGTGATGGGGTTACCTCGA	80.8
AAGTTCATATCCTAAAACGTGTTGACAACACTTCGG	125
CTAACGAAGGTTTGTAATGTGGGTGACAAGCCAAGT	73.8
AACAATCTTCATAGCAACGTGAGTCTTGTTTACCAT	117
TTGTTGAAAACGAGTCACGTGCTTTACCATTTTGCT	11500
TTTCGAGCCAGTTTGCACGTAGTACGGGCCCCCCTA	88.9
CGTCCTAGTGATTGCTCCGTGGGTGCCATGAGGAAG	79.3
GTCTTGTCTCATTGTCACGAAACTTTCCCCACTTCA	114
CTTGCAAACCCTTCACACGTGGACCATGACGAATTT	714

Study 2 — technique: RNA Bind-n-Seq; form: RNA; sample: in vitro; concentration: not given; setting: RNA with constant flanks, ends assumed; baseline: input RNA pool; reading: higher = stronger binding
Target: RING finger protein unkempt homolog, zinc fingers 1-6, GST-SBP tag (UNK, Homo sapiens, UniProt Q9C0B0, residues 30-357)
All sequences stand within: GGGAGUUCUACAGUCCGACGAUC … CAACAGAGGAUUGAGCAUCA
Residues (chain): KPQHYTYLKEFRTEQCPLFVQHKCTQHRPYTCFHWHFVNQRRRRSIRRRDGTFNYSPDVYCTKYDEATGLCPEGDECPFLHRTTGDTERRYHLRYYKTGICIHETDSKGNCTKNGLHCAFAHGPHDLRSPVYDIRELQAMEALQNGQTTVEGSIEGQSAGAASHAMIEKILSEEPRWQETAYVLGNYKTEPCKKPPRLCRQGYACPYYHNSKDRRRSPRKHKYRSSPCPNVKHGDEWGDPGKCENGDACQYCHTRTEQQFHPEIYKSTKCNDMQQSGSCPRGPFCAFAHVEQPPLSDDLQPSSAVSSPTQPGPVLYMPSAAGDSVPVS
Oligonucleotide	bound/input enrichment [ratio]
UUUGGAGCUCCUCCUCAUGCUGGUGGUGGCAUUGGGCUGGAAAGGGUGACGAUGCUGUUUUCCGGAUUGCAUAACGUACGCCAGACCUCAAUGUUCCCUCGUGACCCCAAACGACUCACG	0.08
GGGAUUGAUCUCCUUAGGACCUAUCUUUGGCGUUGCCAGUUCCUUUUACCUUUUGUGAGUUCCGGUUUGAUGUGCUUUGGGGCUUUGAUCGGACUUUGUGCUUGCAUUUGCCGAAGCUUA	2.37
GAUAAGGUACACAUACAUUAUUUGAGUAACUGUUUCCUUGGGGGCCAAUCUGUGUAUGCUUUCCGAAGUUUACAGAAUGCUUUUAUUUUUGUCUAUAACAAACAGUCUGUCAUUUAUUUC	0.207
GAUGUUAGAGAUGUGGUUGGGCGGCCUAUAGAUCCAAGAGAAGGUCCUGGACGGCCUCCACCCGAUGGUAGGGAUCAUUUUGGAAGACCUCCUGUAGAUAUAAGAGAGAAUCUUGUGAGG	4.23
AGCAACGGAGAGCCCCACUUCCUACCAGAUGCAAUGUUUGGGCAACCAGGAGCCCCCGGCCGCACUCCAUUUCUUGGUCAGCAUGGUUUUAAUUUCUUUCCCAGUGGGAUUGACUUCUCA	0.211

Study 3 — technique: protein binding microarray; form: double-stranded DNA, one strand shown; sample: in vitro; concentration: not given; baseline: not given; reading: higher = stronger binding
Target: Histone acetyltransferase KAT6A, winged helix 2, GST fusion (KAT6A, Homo sapiens, UniProt Q92794, residues 85-181)
Setting: 8-mer, flanks averaged, mean of 2 arrays, mostly near background
Residues (chain): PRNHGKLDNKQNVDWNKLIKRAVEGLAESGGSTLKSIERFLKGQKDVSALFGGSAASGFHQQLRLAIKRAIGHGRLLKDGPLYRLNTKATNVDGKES
Oligonucleotide	E-score
CCACGACA	0.195
CCAGGTAA	-0.127
AGAGTACC	-0.132
CACACCTC	-0.0712
ACACTGCA	0.0281
AATTTATA	0.14
ACCGTCAA	0.0104
GATCTTCA	0.13
CCTAGAAC	0.0328
AGAGCTAA	-0.00804
AAGAGCTA	0.136
ATGACGCA	-0.023
CGTGACAG	-0.0787
GCATATAA	0.103
AATCGAGG	0.143
ATCAACTG	0.0467
CGGACCGA	0.198
CCATCCCG	-0.00696

Study 4 — technique: protein-binding microarray; form: double-stranded DNA, one strand shown; sample: in vitro; concentration: 940 nM top; setting: 60-bp whole probe; with: salmon DNA 0.4 mg/ml; baseline: random background probes; reading: higher = stronger binding; all sequences stand within: GCCTAGCAC … GTCTTGATTCGCTTGACGCTGCTG
Target: Interferon regulatory factor 5, full length, phosphomimetic (IRF5, Homo sapiens, UniProt Q13568-2, residues 1-514, S451D/S453D/S456D/S462D)
Oligonucleotide	fitted relative affinity
GACGTTTTCGACTATCGGGACGTGCTA	0.981 z-score
TTAGGGCTGCTTTTCCTTTAGTGCTAG	-0.208 z-score
TCAAGTGTGTGTCTGATACTGTGCTAG	-0.158 z-score
TTAGGTATCGGGTATCGGTTGGTGCTA	7.14 z-score
CTCATTCGTCATTTCACAGTGTGCTAG	0.714 z-score
GACGGAGTGGACTATCGGGACGTGCTA	-0.0179 z-score
GACGATATTAGTTTCGAGACGTGCTAG	5.15 z-score
TCAGTGTTCTTTTCTGTTACTGTGCTA	0.951 z-score
TTAGGACGGCTTCTCCTTTAGTGCTAG	-0.258 z-score
TTGGCTTTCCTTTATGTCCTGTGCTAG	0.0909 z-score
GACGGTTTCCTTCTGCTGACGTGCTAG	1.58 z-score
TTAGGTATCGACACTGGGCTAGTGCTA	4.91 z-score
TTAGGATTCCTACTGCTTTAGTGCTAG	-0.298 z-score
TCAGTTCTGATCCTTCCCACTGTGCTA	0.657 z-score
TTACGTTTCGGTATCGGTTAGTGCTAG	11.6 z-score
TTAGGTTTCCTTTCCCTTAAGTGCTAG	3.18 z-score
TTAGGAGTGGACTTTCGGTTAGTGCTA	2.44 z-score
TATCCTATCAGTTTAATATCGTGCTAG	0.519 z-score
GACGATCTCAGTTTAGAGACGTGCTAG	0.196 z-score

Study 5 — technique: universal PBM; form: double-stranded DNA, one strand shown; sample: in vitro; concentration: 600 nM; reading: higher = stronger binding
Target: Sal-like protein 4, full length isoform A (SALL4, Homo sapiens, UniProt Q9UJQ4, residues 1-1053)
UniProt Q9UJQ4, sequence (whole entry, looked up): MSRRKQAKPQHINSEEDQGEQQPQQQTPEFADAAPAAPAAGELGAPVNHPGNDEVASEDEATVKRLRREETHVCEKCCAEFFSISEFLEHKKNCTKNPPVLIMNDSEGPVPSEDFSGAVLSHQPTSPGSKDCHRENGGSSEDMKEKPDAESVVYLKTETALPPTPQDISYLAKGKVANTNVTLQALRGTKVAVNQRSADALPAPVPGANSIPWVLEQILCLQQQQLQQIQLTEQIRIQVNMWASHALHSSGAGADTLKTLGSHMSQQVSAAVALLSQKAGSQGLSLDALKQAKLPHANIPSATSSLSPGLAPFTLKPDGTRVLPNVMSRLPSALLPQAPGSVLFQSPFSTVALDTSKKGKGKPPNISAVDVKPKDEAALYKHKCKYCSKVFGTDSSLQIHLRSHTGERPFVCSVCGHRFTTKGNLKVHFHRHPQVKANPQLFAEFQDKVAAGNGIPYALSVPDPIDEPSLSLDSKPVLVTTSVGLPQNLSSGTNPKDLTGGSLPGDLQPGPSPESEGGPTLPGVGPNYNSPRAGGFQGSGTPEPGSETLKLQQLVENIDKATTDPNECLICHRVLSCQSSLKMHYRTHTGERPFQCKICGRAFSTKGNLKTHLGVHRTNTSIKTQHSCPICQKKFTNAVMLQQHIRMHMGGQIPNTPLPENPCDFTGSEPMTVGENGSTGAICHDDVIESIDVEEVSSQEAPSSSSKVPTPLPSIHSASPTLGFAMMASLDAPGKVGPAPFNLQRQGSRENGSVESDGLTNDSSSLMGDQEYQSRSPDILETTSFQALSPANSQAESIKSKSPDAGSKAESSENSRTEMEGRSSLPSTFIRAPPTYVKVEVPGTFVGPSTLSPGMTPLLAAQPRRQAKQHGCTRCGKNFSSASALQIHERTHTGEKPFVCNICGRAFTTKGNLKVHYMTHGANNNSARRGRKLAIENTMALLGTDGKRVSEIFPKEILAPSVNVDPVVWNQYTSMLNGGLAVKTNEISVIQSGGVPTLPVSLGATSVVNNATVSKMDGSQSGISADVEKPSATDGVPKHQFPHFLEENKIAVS
Setting: 8-mer, flanks averaged, mean of replicates
Oligonucleotide	E-score
CGGAGACC	-0.243
AGCTATTA	0.257
AAGCGTAA	0.0607
AGATTTAC	0.204
CCGACAAA	0.0796
GGCCACAA	-0.259
TCTAAACA	0.243
GAACCTCA	-0.0287
GATTGTTA	0.216
GCTGGCGA	-0.26
CATTGTAG	0.0903
AATAACTA	0.388
ATGGATAG	0.0263
CGACCGCC	-0.294
CGAAGTAC	0.0319
CATGACCA	-0.0585
CAAATCAG	0.235
